Experimental data collected from several papers.
Protocols differ between the studies behind these lines. Numbers after ± are the reported error.

`CN(C)CCCNC(=O)c1cc(NC(=O)c2cc(NC(=O)c3cc(NC(=O)c4nc(NC(=O)[C@H](N)CCNC(=O)c5cc(NC(=O)c6cc(NC(=O)c7nc(NC(=O)c8nccn8C)cn7C)cn6C)cn5C)cn4C)cn3C)cn2C)cn1C` gave a melting temperature of 76.2 ± 1.9 °C (12-mer DNA duplex; DNA binding, UV thermal denaturation; 2.4 µM, pH 7.0, match base pair A·T, together with: DNA duplex 2 µM).
The log β of `Br.Br.O=c1c(O)cccn1CCN1CCN(CCn2cccc(O)c2=O)CC1` is reported as 14.6 (Fe(III); mono-HOPO complex formation; 25 °C, ionic strength 0.10 M).
For `COc1cc(/C=C/C(=O)OCCCC[P+](c2ccccc2)(c2ccccc2)c2ccccc2)ccc1O`, “glutathione peroxidase activity” read “increased” (glutathione peroxidase, rat; rat mitochondria; 10 µM, 15 and 30 min).
`CCCCC/C=C/C(=O)CCc1ccc(O)c(OC)c1` gave an IC50 of over 4 µg/mL (mAb 6-AT6; antibody binding, indirect competitive ELISA; together with: coating antigen 1-OVA).
`C=C(CC)C(=O)c1ccc(OCC(=O)NCCCCNC(=O)COc2ccc(C(=O)C(=C)CC)c(Cl)c2Cl)c(Cl)c1Cl` has an inhibition of about 35% (glutathione S-transferase, human; enzyme activity; SK-OV-3 cell lysate; 0.2 µM).
`CC(=O)N[C@@H](CC(N)=O)C(=O)NCC(=O)N[C@@H](C)C(=O)N[C@@H](C)C(N)=O`: “rate constant k1” 0.219 h⁻¹ (Asn-Gly peptide isomerisation to succinimide; 1H NMR time course; pH 7.4, 55 °C).
For `CN(C)CCCNC(=O)c1cc(NC(=O)c2cc(NC(=O)c3cc(NC(=O)c4nc(NC(=O)[C@H](N)CCNC(=O)c5cc(NC(=O)c6cc(NC(=O)c7nc(NC(=O)c8nccn8C)cn7C)co6)co5)cn4C)cn3C)cn2C)cn1C`, the melting temperature was 73.2 ± 1.3 °C (12-mer DNA duplex; DNA binding, UV thermal denaturation; 2.4 µM, pH 7.0, match base pair A·T, together with: DNA duplex 2 µM).
`CNC(=O)c1ccccc1Oc1nc(Nc2cc(OC)c(OC)c(OC)c2)ncc1Br` — result for “number of kinases inhibited”: 30 (human protein kinase panel; 1 µM; inhibition above 25%).
For `Cc1ccc(NC(=O)c2c(C)oc3ccc(O)c(CN4CCCCCC4)c23)cc1`, PCR amplification read “no effect” (mutant MYC Pu27 DNA, non-G4; PCR stop; up to 100 µM).
With `CN(C)CCCNC(=O)c1cc(NC(=O)c2cc(NC(=O)c3cc(NC(=O)c4nc(NC(=O)[C@H](N)CCNC(=O)c5cc(NC(=O)c6cc(NC(=O)c7nc(NC(=O)c8nccn8C)cn7C)co6)cn5C)cn4C)cn3C)cn2C)cn1C` the melting temperature was 72.9 ± 0.3 °C (12-mer DNA duplex; DNA binding, UV thermal denaturation; 2.4 µM, pH 7.0, mismatch base pair C·G, together with: DNA duplex 2 µM).
`CC(=O)N[C@@H](CC(N)=O)C(=O)NCC(=O)N[C@@H](CCCNC(=N)N)C(=O)N[C@@H](C)C(N)=O`: “rate constant k1” 0.235 h⁻¹ (Asn-Gly peptide isomerisation to succinimide; 1H NMR time course; pH 7.4, 55 °C).
`C[N+](C)(CCl)CCO` gave an EC50 of 8.9 nM (TMA lyase; TMA production, whole-cell; Proteus mirabilis, wild type).
With `Nc1nc2c(ncn2[C@@H]2O[C@@H]3COP(=O)(O)O[C@H]4[C@@H](F)[C@H](n5cnc6c(N)ncnc65)O[C@@H]4CSP(=O)(O)O[C@H]2[C@@H]3O)c(=O)[nH]1` the EC50 was 886 ± 1 nM (STING mouse; IRF reporter induction, agonist, luciferase; RAW Dual wild type; 24 h).
For `C[N+](C)(CCl)CC(=O)O`, the EC50 was 5000 nM (TMA lyase; TMA production, whole-cell; Proteus mirabilis, wild type).
For `CCOC(=O)c1ccc(N2NC(=O)/C(=C/c3ccc([N+](=O)[O-])o3)C2=O)cc1`, protein degradation read “inhibited” (Ub(G76V)-GFP reporter; inhibitor; human cells; concentration not given).
The inhibition of `Cc1ccc(C(=O)OCCCn2ccc(=O)c(OCc3ccccc3)c2C)cc1` is reported as 4% (β-hematin formation; 200 µg/mL, 24 h, 60 °C).
`CCCCN1C(=O)c2cccc3c(NCCCCCCN4CCOCC4)ccc(c23)C1=O`: “blue shift of emission maximum” 32 nm (lysosomes; BHK-21; lysosomal micro-polarity; relative to: water).
`COc1ccc2nnn(C(=O)N3COCC3(C)C)c2c1` has a remaining activity of 79 ± 13% (carboxylesterases (rat); inhibitor; rat liver microsomes; 10 µM; relative to: control).
`CN(C)CCSSCCNC(=O)c1cccc(F)c1` has a PPI stabilization of 1 (human 14-3-3γ/ERRγ DBD phosphopeptide; stabilizer, fluorescence anisotropy; 100 µM, pH 8.0, unit not given; relative to: DMSO).
`CCNS(=O)(=O)c1ccc(COc2ccc3nc4ccc(=O)cc-4oc3c2)cc1` — result for “DDR1 tyrosine phosphorylation”: “no effect” (human DDR1; HEK293 DDR1-Myc; 0.25 to 2 µM, 4 h, together with: collagen I 30 µg/mL).
The selectivity ratio of `NS(=O)(=O)c1ccc(N2N=C(C(F)(F)F)CC2c2ccc(F)cc2F)cc1` (stereo not shown) is reported as 3.2 (dog COX-1 and COX-2; dog whole blood; relative to: IC50 COX-1 over COX-2).
`CCOc1ccc(-c2nc3cc(-c4nc5cc(N6CCN(C)CC6)ccc5[nH]4)ccc3[nH]2)cc1` — result for “NC-RNA complex dissociation”: “no effect” (HIV-1 nucleocapsid protein-RNA NC•SL3 complex; ESI-FTMS; 0.35 to 17.5 µM, added to preformed complex).
For `CO[C@@H]1[C@H](O)[C@@H](COP(=O)(O)OP(=O)([S-])OP(=O)(S)OC[C@H]2O[C@@H](n3cnc4c(=O)[nH]c(N)nc43)[C@H](O)[C@@H]2O)O[C@H]1n1c[n+](C)c2c(O)nc(N)nc21` (stereo partly shown), the decapped RNA was 10 to 30% (Schizosaccharomyces pombe Dcp1/Dcp2; substrate; 5 to 15 min, RNA capped with compound).
`COc1cc(CCC(C)=O)ccc1O` gave an IC50 of 2.19 µg/mL (mAb 6-AT6; antibody binding, indirect competitive ELISA; together with: coating antigen 5-OVA).
`CCCn1c(=O)c2[nH]c(-c3ccc(N(C)C(=O)c4ccc(C(F)(F)F)nc4)nc3)nc2n(CCC)c1=O` has a selectivity ratio of over 400 fold (mouse adenosine A2B receptor; radioligand displacement; HEK293 membranes; relative to: A2B over other adenosine receptors).
For `Cc1sc2ncn(CC(=O)N3CCCC3)c(=O)c2c1-c1ccc(Cl)cc1`, the current potentiation was at most 8 fold (NMDA receptor rat recombinant; potentiator, voltage clamp; dose not given, together with: sub-saturating agonists; relative to: control).
For `CC(=O)N[C@@H](CC(C)C)C(=O)N[C@H](C(=O)N[C@@H](Cc1ccccc1)C(=O)N[C@]1(C)CCCCCCC=CCCC[C@@](C)(C(=O)N[C@@H](CO)C(=O)N[C@@H](C)C(=O)N[C@@H](C)C(N)=O)NC(=O)[C@H](CC2CCC2)NC(=O)[C@H](CCC(N)=O)NC(=O)[C@H](C)NC(=O)[C@H](Cc2c[nH]c3ccccc23)NC(=O)[C@H](Cc2ccc(O)cc2)NC(=O)[C@H](CCC(=O)O)NC1=O)[C@@H](C)O`, the EC50 was 4200 nM (p53; reporter gene, activator; HCT-116 p53 reporter; 16 h, 2% FBS).
`COCCNc1nc(-c2nccn2C)nc2sc(-c3cccc(OC)c3Cl)c(-c3ccccc3)c12` gave an IC50 of 1000 to 3000 nM (Ras; Ras-GTP complex formation, inhibitor, GTP pull-down; PANC-1; 6 h, together with: EGF 15 min).
The EC50 of `C[N+](C)(CI)CCO` is reported as 1.5 nM (TMA lyase; TMA production, whole-cell; Proteus mirabilis, wild type).
`CN(C)CCCNC(=O)c1cc(NC(=O)c2cc(NC(=O)c3cc(NC(=O)c4nc(NC(=O)[C@H](N)CCNC(=O)c5cc(NC(=O)c6cc(NC(=O)c7nc(NC(=O)c8nccn8C)cn7C)cn6C)co5)cn4C)cn3C)cn2C)cn1C` has a melting temperature of 73.8 ± 0.3 °C (12-mer DNA duplex; DNA binding, UV thermal denaturation; 2.4 µM, pH 7.0, match base pair A·T, together with: DNA duplex 2 µM).
`C=C(CC)C(=O)c1ccc(OCC(=O)NCCNC(=O)COc2ccc(C(=O)C(=C)CC)c(Cl)c2Cl)c(Cl)c1Cl` gave an inhibition of about 80% (glutathione S-transferase, human; enzyme activity; SGC-7901 cell lysate; 0.2 µM).

Some of these lines once more:
`CN(C)CCSSCCNC(=O)c1cccc(F)c1` has a PPI stabilization of 1 (human 14-3-3γ/ERRγ DBD phosphopeptide; stabilizer, fluorescence anisotropy; 100 µM, pH 8.0, unit not given; relative to: DMSO).
`CCNS(=O)(=O)c1ccc(COc2ccc3nc4ccc(=O)cc-4oc3c2)cc1` — result for “DDR1 tyrosine phosphorylation”: “no effect” (human DDR1; HEK293 DDR1-Myc; 0.25 to 2 µM, 4 h, together with: collagen I 30 µg/mL).
The selectivity ratio of `NS(=O)(=O)c1ccc(N2N=C(C(F)(F)F)CC2c2ccc(F)cc2F)cc1` (stereo not shown) is reported as 3.2 (dog COX-1 and COX-2; dog whole blood; relative to: IC50 COX-1 over COX-2).
